# Published values collected from several papers.
# Several values in a cell are separate wells, animals, samples, runs or records. ± gives the spread as reported.
# Gria1: Glutamate receptor 1 (Gria1, Rattus norvegicus, UniProt P19490)
# TDP1: Tyrosyl-DNA phosphodiesterase 1 (TDP1, Homo sapiens, UniProt Q9NUW8)
# CASP6: Caspase-6 (CASP6, Homo sapiens, UniProt P55212)
# Uncharacterized protein: Uncharacterized protein (Trypanosoma brucei brucei, UniProt Q386Q8)
# glpG: Rhomboid protease GlpG (glpG, Escherichia coli, UniProt P09391)
# T1: dsDNA, duplex; chain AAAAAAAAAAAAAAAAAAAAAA; chain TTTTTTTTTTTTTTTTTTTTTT
SMILES,tested on,test,test system,setting,how to read,endpoint,result
O=C(O)Cc1cc2c(cc1C(=O)c1ccccc1I)OCO2,Gria1,"glutamate-evoked current, whole-cell patch clamp",HEK-293T,concentration not given,,current amplitude,394 ± 29 pA
Cc1nc(C)c(C=NOCc2ccc3nc(-c4ccccc4)c(Nc4ccc(C(=O)O)cc4)n3c2)s1,TDP1,"enzyme activity, inhibitor",,"100 µM, unpurified compound",,inhibition,-10.9%
Cn1c(=O)n(C2CCC(=O)NC2=O)c2ccc(C3CCN(CC(=O)Nc4cccc(CS(=O)(=O)N5CC[C@H](Nc6cccc(-c7sc(C(=O)O)c(OCC(=O)O)c7Cl)c6)CC5(C)C)c4)CC3)cc21 (stereo partly drawn),"PTPN2 (Homo sapiens, UniProt P17706, H30A/P33A/R35A)","degrader, bio-layer interferometry",,31.3 nM,higher = more binding,BLI binding response,0.213 a.u.
CCCC[C@H](NC(C)=O)C(=O)N[C@@H](CCC(=O)O)C(=O)N[C@@H](CO)C(=O)N[C@@H](CC(=O)O)C(=O)COC(=O)c1c(C)cccc1C,CASP6,"enzyme activity, inhibitor",,,,kinact/KI,48000 M⁻¹ s⁻¹
CCCCCCCCCCCCC/C=C/C=O,"Chromatin accessibility complex protein 1 (CHRAC1, Homo sapiens, UniProt Q9NRG0)","competitive isoTOP-ABPP, refers to: CHRAC1 cysteine peptide",Ramos soluble proteome,"100 µM, added: iodoacetamide probe","relative to: DMSO over compound-treated, higher = stronger cysteine blockade",isoTOP-ABPP competition ratio,1
CC(=O)N[C@@H](CCC(C)C)C(=O)N[C@@H](CCC(=O)O)C(=O)N[C@@H](C)C(=O)N[C@@H](CC(=O)O)C(=O)COC(=O)c1c(C)cccc1C,CASP6,"enzyme activity, inhibitor",,,,kinact/KI,13500 M⁻¹ s⁻¹
Cc1cnc2nc1Nc1cccc(c1)COC/C=C/COCc1cc(ccc1OCCN1CCOCC1)N2,"EGFR (Homo sapiens, UniProt P00533, del752-759)",binding,,0.1 µM,,remaining binding,97%
CCCCCC(O)/C=C/C=O (stereo not drawn),"Chromatin accessibility complex protein 1, Cys55 (CHRAC1, Homo sapiens, UniProt Q9NRG0)",competitive isoTOP-ABPP,Ramos soluble proteome,"100 µM, 60 min, added: iodoacetamide probe","relative to: DMSO over compound-treated, higher = stronger cysteine blockade",isoTOP-ABPP competition ratio,1.8
N=C(N)NCCS(=O)(=O)O,"SLC6A6 (Homo sapiens, UniProt P31641, Y138A)","binding, microscale thermophoresis",,"7.81 µM, room temperature, added: 50 nM labelled protein",higher = more binding,normalised MST signal,0.00021
CCCCCC=CC=C1C(=O)C=CC1CC=CCCCC(=O)O (stereo not drawn),"Perilipin-3 (PLIN3, Homo sapiens, UniProt O60664)","competitive isoTOP-ABPP, refers to: M6PRBP1 cysteine peptide",Ramos soluble proteome,"100 µM, added: iodoacetamide probe","relative to: DMSO over compound-treated, higher = stronger cysteine blockade",isoTOP-ABPP competition ratio,5.6
Nc1nnc(-c2ccccc2O)cc1N1CCNCC1,"Protein polybromo-1, BD5 (PBRM1, Homo sapiens, UniProt Q86U86)","ternary complex binding, TR-FRET competition",,added: VCB complex,,cooperativity factor alpha,1
CNc1cc(N)c(C(N)=O)c[n+]1C,"Nicotinamide N-methyltransferase, SAH-bound (NNMT, Homo sapiens, UniProt P40261)",product complex binding,,,,dissociation half-life,62 min
CC(C)Oc1cc(Cl)ccc1CNc1cc(-c2ccccc2)nc2ncnn12,"GPR3 (Homo sapiens, UniProt P46089)",cAMP reporter,human cells,10 pM,higher is more cAMP,cAMP luminescence,43900 a.u. and 43200 a.u. and 29600 a.u. and 23800 a.u. and 30200 a.u. and 37900 a.u. and 55700 a.u. and 53200 a.u.
COc1ccc(C2=Nn3c(nnc3C3CCCCC3)SC2)cc1,Uncharacterized protein,"inhibitor, coupled colorimetric",Trypanosoma brucei,,,Hill slope,0.75
O=C1c2sc(-c3ccc(N4CCC(CO)CC4)nc3F)nc2CCN1c1cccnc1,"5-hydroxytryptamine receptor 4, isoform 5-HT4e (HTR4, Homo sapiens, UniProt Q13639)","radioligand binding, antagonist",,1 µM,,inhibition,-14%
CC(C)[C@@H]1NC(=O)[C@H](Cc2ccccc2)NC(=O)CSC[C@@H](C(N)=O)NC(=O)[C@H](CCC(=O)O)NC(=O)[C@H](CO)NC(=O)[C@H](Cc2c[nH]c3cccc(Cl)c23)NC(=O)[C@H](C2CCCCC2)NC(=O)[C@H](C(C)C)NC(=O)[C@H](Cc2ccc(O)cc2)NC(=O)[C@H](CC(=O)O)NC(=O)[C@H](Cc2c[nH]c3ccccc23)NC(=O)[C@H](Cc2ccc(N)nc2)NC(=O)[C@H](Cc2c[nH]c3ccc(Cl)cc23)NC(=O)[C@H](CCC(=O)O)NC1=O,"Interleukin-1 receptor-like 2 (IL1RL2, Homo sapiens, UniProt Q9HB29)","reporter gene (SEAP), inhibitor, HEK-Blue IL-36R reporter",HEK-Blue IL-36R cells,"0.046 µM, 6 h, added: IL-36β 0.01 ng/mL",,remaining activity,63%
COC1CN([C@H]2CC[C@H]([C@@]3(C)Oc4c(Cl)cc(C(=O)NCc5c(SC)cc(C)[nH]c5=O)c(C)c4O3)CC2)C1,,"RNA-seq, refers to: TMCC2","human, whole blood","dose not given, 24 h",relative to: pretreatment baseline,log2 fold change,2.21
CC(=O)N[C@@H](Cc1c[nH]c2ccccc12)C(=O)N[C@@H](CCC(=O)O)C(=O)N[C@@H](Cc1c[nH]cn1)C(=O)N[C@@H](CC(=O)O)C(=O)COC(=O)c1c(C)cccc1C,CASP6,"enzyme activity, inhibitor",,,,kinact/KI,24700 M⁻¹ s⁻¹
O=C(O)c1ccc(Nc2c(-c3ccccc3)nc3ccc(CON=Cc4c(O)c(C(=O)O)cc5ccccc45)cn23)cc1 (mixture of isomers),TDP1,"enzyme activity, inhibitor",,"100 µM, unpurified compound",,inhibition,50.5%
O=C1c2sc(-c3ccc(N4CCC(F)C4)nc3F)nc2CCN1c1cccnc1 (stereo not drawn),"Nociceptin receptor (OPRL1, Homo sapiens, UniProt P41146)","ligand displacement, radioligand",,1 µM,,inhibition,2%
CC(=O)N[C@@H](CC(=O)O)C(=O)N[C@@H](CCC(=O)O)C(=O)N[C@@H](CC(C)C)C(=O)N[C@@H](CC(=O)O)C(=O)COC(=O)c1c(C)cccc1C,CASP6,"enzyme activity, inhibitor",,,,kinact/KI,327000 M⁻¹ s⁻¹
O=C(O)c1ccc(Nc2c(-c3ccccc3)nc3ccc(CON=Cc4ccc(-c5cccs5)nc4)cn23)cc1,TDP1,"enzyme activity, inhibitor",,"100 µM, unpurified compound",,inhibition,-9.4%
Cc1cccc2c1NC(=O)C2(O)CC(=O)c1ccc2c(c1)OCO2 (stereo not drawn),Uncharacterized protein,"inhibitor, coupled colorimetric",Trypanosoma brucei,,,Hill slope,1.56
N[C@@H](Cc1c[nH]c2cccc(OCc3ccccc3)c12)C(=O)O,"SLC7A5 (Homo sapiens, UniProt Q01650)",[3H]-L-leucine uptake,HT-29,,,Hill slope,-0.736
O=C(O)c1ccc(Nc2c(-c3ccc(CON=Cc4ccc(OCC(=O)N5CCNC5=O)cc4)cc3)nc3cc(-c4ccccc4)ccn23)cc1,TDP1,"enzyme activity, inhibitor",,100 µM,,inhibition,100%
CCCCCCCO[C@H]1O[C@H](CO)[C@@H](O)[C@H](O)[C@@H]1O,"Type 1 fimbrin D-mannose specific adhesin, lectin domain (fimH, Escherichia coli K-12, UniProt P08191)","binding, isothermal titration calorimetry",,"25 °C, individual direct titrations",,-TΔS,6.8 kJ/mol and 7.8 kJ/mol
C#CCOc1ccc(C=NOCc2ccc3nc(-c4ccccc4)c(Nc4ccc(C(=O)O)cc4)n3c2)cc1,TDP1,"enzyme activity, inhibitor",,"100 µM, unpurified compound",,inhibition,30.1%
CCCCCCCCn1c(CC)c(C)[n+](CCCCCCCC)c1CCC,"T1, dsDNA, duplex","competition with EtBr, competitor, EtBr displacement fluorescence",,"Na+ 50 mM, added: EtBr",,binding,binds
CC(=NOCc1ccc2nc(-c3ccccc3)c(Nc3ccc(C(=O)O)cc3)n2c1)c1ccccc1O,TDP1,"enzyme activity, inhibitor",,"100 µM, unpurified compound",,inhibition,3.2%
COc1cccc2c(N3CCC(CCP(=O)(O)O)CC3)ncnc12,"Enpp1 (Mus musculus, UniProt P06802)","binding, SPR",,,,kon,1.04e+07 M⁻¹ s⁻¹
CCCCCCOc1ccc(C(=O)OCC[N+]2(C)CC=CCC2)cc1 (stereo not drawn),"CHRM5 (Homo sapiens, UniProt P08912)",,membranes,"100 µM, 15 h, no carbachol",relative to: control,basal binding,1.1 ± 0.04 fold
CC[C@H](C)[C@H](NC(C)=O)C(=O)N[C@@H](CCC(=O)O)C(=O)N[C@H](C(=O)N[C@@H](CC(=O)O)C(=O)COC(=O)c1c(C)cccc1C)[C@@H](C)O,CASP6,"enzyme activity, inhibitor",,,,kinact/KI,642000 M⁻¹ s⁻¹
N#CN1CC[C@H](C(=O)Nc2nc3c(s2)CN(C(=O)Cn2cc(COCCOCCOCCOCCNC(=O)CCCC[C@@H]4SC[C@@H]5NC(=O)N[C@@H]54)nn2)CC3)C1,"Tubulin beta-4B chain (Homo sapiens, UniProt P68371)","probe binding, affinity probe, neutravidin pull-down LC-MS/MS","HEK293T, cell lysate","5 µM, 1 h, single replicate, unit not given",higher = more pulled down,iBAQ abundance,2.02e+08 and 2.61e+08 and 3.68e+08
O=C(O)Cc1cc2c(cc1C(=O)c1ccccc1Cl)OCO2,Gria1,"glutamate-evoked current, whole-cell patch clamp",HEK-293T,"concentration not given, weighted tau, 500 ms pulse, added: glutamate",,desensitization time constant,1 ± 0.1 ms
O=C1CCN1C(=O)NCc1ccccc1,glpG,"enzyme activity, inhibitor, gel-based chimeric protein substrate",,,,IC50,inactive
O=C(O)c1ccc(Nc2c(-c3ccccc3)nc3ccc(CON=Cc4ccc(N5CCSCC5)cc4)cn23)cc1,TDP1,"enzyme activity, inhibitor",,"100 µM, unpurified compound",,inhibition,52.1%
C[C@@H](Nc1nc(N[C@H](C)C(F)(F)F)nc(-c2cccc(Cl)n2)n1)C(F)(F)F,"IDH1 (Homo sapiens, UniProt O75874)",,,16 h preincubation,,maximum inhibition,84.2 ± 1%
CC(C)C[C@@H]1NC(=O)[C@H](Cc2ccccc2)NC(=O)CSC[C@@H](C(=O)NCC(N)=O)NC(=O)[C@H](C(C)C)NC(=O)[C@H](Cc2ccccc2)NC(=O)[C@H](Cc2ccc(O)cc2)NC(=O)[C@H](C(C)C)NC(=O)[C@H](CC(=O)O)NC(=O)[C@H](Cc2ccccc2)NC(=O)[C@H](CCCNC(=N)N)NC(=O)[C@H](Cc2ccccc2)N(C)C(=O)[C@H](C)NC(=O)[C@H](Cc2ccccc2)NC(=O)[C@H](C(C)C)NC1=O,"Bromodomain-containing protein 4, BD1 (BRD4, Homo sapiens, UniProt O60885)","thermal stability, DSF",,50 µM,,ΔTm,-1.03 °C
Cc1ccc(S(=O)(=O)NC(CC(=O)O)c2ccccc2)cc1 (stereo not drawn),glpG,"enzyme activity, inhibitor, gel-based chimeric protein substrate",,,,IC50,inactive
CC(C)NCCCn1c(Sc2cc3c(cc2I)OCO3)nc2c(N)ncnc21,"HSP90AA1/HSP90B1 (Homo sapiens, UniProt P07900+P41148, E62I/S52A/Y61L)",ITC,,,,ΔH,-12.3 ± 0.96 kcal/mol
O=C(Cc1ccc(OCc2ccccc2)cc1)NC1(C(=O)O)CCN(C(=O)c2ccc(-c3cccc(Cl)c3)cc2)CC1,"MAP3K21 (Homo sapiens, UniProt Q5TCX8)","enzyme activity, inhibitor",,10 µM,,activity vs control,97%
O=[N+]([O-])c1cc(Br)cc([N+](=O)[O-])c1NS(=O)(=O)c1ccc(Br)cc1,"HAB1 (Arabidopsis thaliana, UniProt Q9CAJ0)",inhibitor,,"1000 µM, no PYL receptor",higher = more activity,phosphatase activity,0.21 a.u. and 0.216 a.u. and 0.224 a.u.
Clc1ccc(Nc2nc(NC3CCCCC3)c3ccccc3n2)cc1,"ADRB2 (Homo sapiens, UniProt P07550)","β-arrestin2 recruitment, PathHunter and GloSensor",,,relative to: GloSensor IC50 over PathHunter IC50,bias factor,> 50 fold
O=C(O)c1ccc(Nc2c(-c3ccc(CON=Cc4cc([N+](=O)[O-])ccc4N4CCN(c5ccccc5)CC4)cc3)nc3cc(-c4ccccc4)ccn23)cc1 (mixture of isomers),TDP1,"enzyme activity, inhibitor",,"100 µM, unpurified compound",,inhibition,84%
O=C(O)Cc1cc2c(cc1C(=O)c1cccc(Br)c1)OCO2,Gria1,whole-cell patch clamp,HEK-293T,"concentration not given, added: glutamate",,deactivation time constant,6.3 ± 0.3 ms

# A few entries again:
SMILES,tested on,test,test system,setting,how to read,endpoint,result
O=C(O)c1ccc(Nc2c(-c3ccccc3)nc3ccc(CON=Cc4c(O)c(C(=O)O)cc5ccccc45)cn23)cc1 (mixture of isomers),TDP1,"enzyme activity, inhibitor",,"100 µM, unpurified compound",,inhibition,50.5%
O=C1c2sc(-c3ccc(N4CCC(F)C4)nc3F)nc2CCN1c1cccnc1 (stereo not drawn),"Nociceptin receptor (OPRL1, Homo sapiens, UniProt P41146)","ligand displacement, radioligand",,1 µM,,inhibition,2%
CC(=O)N[C@@H](CC(=O)O)C(=O)N[C@@H](CCC(=O)O)C(=O)N[C@@H](CC(C)C)C(=O)N[C@@H](CC(=O)O)C(=O)COC(=O)c1c(C)cccc1C,CASP6,"enzyme activity, inhibitor",,,,kinact/KI,327000 M⁻¹ s⁻¹
O=C(O)c1ccc(Nc2c(-c3ccccc3)nc3ccc(CON=Cc4ccc(-c5cccs5)nc4)cn23)cc1,TDP1,"enzyme activity, inhibitor",,"100 µM, unpurified compound",,inhibition,-9.4%
Cc1cccc2c1NC(=O)C2(O)CC(=O)c1ccc2c(c1)OCO2 (stereo not drawn),Uncharacterized protein,"inhibitor, coupled colorimetric",Trypanosoma brucei,,,Hill slope,1.56
